Experimental data collected from several papers.
Each line is one published result; not all experiments were run side by side.
Target: Mitogen-activated protein kinase kinase kinase 11 (MAP3K11, Homo sapiens, UniProt Q16584)

Structure (SMILES) | test | system | conditions | scale | measurement | value
CS(=O)(=O)Nc1cccc(-c2csc3cnc(Nc4ccc(N5CCN(CCCCCOc6cccc7c6C(=O)N(C6CCC(=O)NC6=O)C7=O)CC5)cc4)nc23)c1 (stereo not drawn) | probe labelling, inhibitor, KiNativ chemoproteomics | MOLT-4 | 1 µM |  | inhibition | 68.7%
NC(=O)[C@@H](O)C[C@H]1CCc2sc3ncnc(O[C@H]4CC[C@H](N5CCOCC5)CC4)c3c21 | enzyme activity, inhibitor |  | 10 µM |  | inhibition | 8%
C=CC(=O)N1Cc2nc(-c3cc(-c4cc(Cl)cnc4Cl)c(F)cc3F)n(-c3ccncn3)c2C1 | cell-free assay, inhibitor |  | 1 µM |  | inhibition | -0.2%
COc1c(Cl)cccc1Nc1c(-c2ccncc2C#C[C@@]2(C)CCCN2C(=O)/C=C/CN(C)C)[nH]c2c1C(=O)NCC2 | binding, competition with immobilised ligand |  | 3 µM |  | remaining binding | 100%
CNC1C[S+]2CC[S+]3CC[S+](C1)[Ru-4]321([N]=C=S)[n]2c3ccc(OC)cc3c3c4c(c5cc(F)c[n+]1c5c32)C(=O)NC4=O (stereo not drawn) | KinomeScan |  | 0.1 µM | relative to: untreated | remaining binding | 98%
COc1cc(Nc2nc(C)cc(-c3cnn4nc(OC)ccc34)n2)cc(C(F)(F)F)c1 | inhibitor |  | 1 µM, MLK3 | relative to: control | remaining activity | 79%
CNC(=O)C1CCN(c2cc(C)c(F)cc2NC(=O)c2ccc(-c3cc(O)ccc3C)c(C)c2)CC1 | binding, competition with immobilised ligand |  | 1 µM |  | remaining binding | 99%
Cc1ccc(-c2c(/C=C(\C#N)C(=O)NC(C)C)n(CCCO)c3ncnc(N)c23)cc1 | cell-free assay, competition with immobilised ligand |  | 1 µM |  | remaining binding | 90%
O=C(Cc1ccc(OCc2ccccc2)cc1)NC1(C(=O)O)CCN(C(=O)c2ccc(-c3cccc(Cl)c3)cc2)CC1 | enzyme activity, inhibitor |  | 10 µM |  | activity vs control | 72%
COc1cc(Nc2nccc(-c3cnn4nc(OC)ccc34)n2)cc(C(F)(F)F)c1 | binding, competition with immobilised ligand |  | 1 µM |  | remaining binding | 100%
Nc1ncc2c(n1)-c1c([nH]c3ccc(C4=CCOCC4)cc13)CCC2 | binding, competition with immobilised ligand |  | 1 µM |  | remaining binding | 100%
c1ccc2c(Nc3cc(C4CCC4)[nH]n3)nc(Nc3ccc4nc[nH]c4c3)nc2c1 | enzyme activity, inhibitor |  | 0.25 µM |  | remaining activity | 3%
CN1CC[C@@H](COc2cnc(C#N)cc2-c2ccn3nc(NC(=O)C4CC4)cc3c2)C1 | enzyme activity, inhibitor |  | 1 µM |  | inhibition | 8%
CC(C)=CC1OC(C)(C)C2C=C3C(=O)C(Cl)=CC(O)C3C3C(O)C4OC4C(=O)C132 (stereo not drawn) | cell-free assay, competition with immobilised ligand |  | 10 µM |  | remaining binding | 99%
CCn1cc(C(=O)O)c(=O)c2c(N)c(F)c(NC3CCCCC3)cc21 | kinase activity |  | 0.1 µM, with: ATP at Km |  | inhibition | 1.3%
NC(=O)C[C@H]1CCc2sc3ncnc(O[C@H]4CC[C@H](N5CCOCC5)CC4)c3c21 | enzyme activity, inhibitor |  | 10 µM |  | inhibition | 1%
C=CC(=O)N1CCc2ccc(-n3c(=O)ccc4cnc5ccc(-c6cnn(C)c6)cc5c43)cc21 | KINOMEscan |  | 1 µM | relative to: DMSO control | remaining binding | 100%
CCN1CCN(Cc2ccc(C(=O)Nc3ccc(C)c(NCc4cnc5[nH]ccc5c4OC)c3)cc2C(F)(F)F)CC1 | binding, competition with immobilised ligand |  | 1 µM |  | remaining binding | 62%
CN1CCN(Cc2ccc(-c3ccc(CO[C@H]4CCC[C@@H]4NC(=O)c4cc(-c5cnn(C)c5)cnc4N)cc3)cc2)CC1 | enzyme activity, inhibitor |  | 0.1 µM |  | inhibition | -1%
C=CC(=O)N1CCCC(n2c(=O)c3ncccc3n(Cc3ccc(Oc4ccccc4)cc3)c2=O)C1 (stereo not drawn) | cell-free assay, competition with immobilised ligand |  | 1 µM |  | remaining binding | 93%
Cc1cnc2nc1Nc1cccc(c1)COC/C=C/COCc1cc(ccc1OCCN1CCOCC1)N2 | cell-free assay |  | 0.1 µM |  | remaining signal | 97%

Some of these lines once more:
Structure (SMILES) | test | system | conditions | scale | measurement | value
C=CC(=O)N1Cc2nc(-c3cc(-c4cc(Cl)cnc4Cl)c(F)cc3F)n(-c3ccncn3)c2C1 | cell-free assay, inhibitor |  | 1 µM |  | inhibition | -0.2%
Nc1ncc2c(n1)-c1c([nH]c3ccc(C4=CCOCC4)cc13)CCC2 | binding, competition with immobilised ligand |  | 1 µM |  | remaining binding | 100%
CCN1CCN(Cc2ccc(C(=O)Nc3ccc(C)c(NCc4cnc5[nH]ccc5c4OC)c3)cc2C(F)(F)F)CC1 | binding, competition with immobilised ligand |  | 1 µM |  | remaining binding | 62%
